Measured values from different studies.
Each line is one published result; not all experiments were run side by side. “And” joins repeats or separate records; there may be more than shown. ± gives the spread as reported.
CXCR4: C-X-C chemokine receptor type 4 (CXCR4, Homo sapiens, UniProt P61073)
FFAR4: Free fatty acid receptor 4 (FFAR4, Homo sapiens, UniProt Q5NUL3)
GAP50: Glideosome-associated protein 50 (GAP50, Plasmodium falciparum, UniProt Q8I2X3)
Kir3.1/Kir3.2: Kir3.1/Kir3.2 (Homo sapiens, UniProt P48051+P48549)
TRPM8: Transient receptor potential cation channel subfamily M member 8 (TRPM8, Homo sapiens, UniProt Q7Z2W7)

`CC(=O)Nc1ccc(O)cc1`: “chemical shift change” -0.181 ppm (Bromodomain-containing protein 4 (BRD4, Homo sapiens, UniProt O60885); 19F NMR, refers to: tyrosine 97; 1470 µM; relative to: free protein).
`O=C(NCc1ccc(CNS(=O)(=O)c2ccccc2)cc1)c1ccccc1F` gave an EC of 1000 nM (CXCR4; binding, inhibitor, competitive binding; MDA-MB-231; together with: biotinylated TN14003).
For `C=CC(=O)N1CCC[C@@H](n2nc(-c3ccc(Oc4ccccc4)cc3)c3c(N)ncnc32)C1`, the remaining activity was 75.3% (Casein kinase I isoform alpha-like (CSNK1A1L, Homo sapiens, UniProt Q8N752); 0.1 µM).
`CC[C@@H](C)[C@@H](NC(=O)[C@@H](Cc1ccc(O)cc1)NC(=O)[C@H]1CCCN1C(=O)[C@@H](CCCNC(=N)N)NC(=O)[C@H](N)Cc1c[nH]cn1)C(=O)N[C@H](C)C(=O)N[C@H](Cc1c[nH]cn1)C(=O)N[C@H](CCCNC(=N)N)C(=O)N[C@@H](C(=O)N[C@H](Cc1ccc(O)cc1)C(=O)N[C@H](CO)C(=O)N[C@H](Cc1ccccc1)C(N)=O)C(C)C` has a surface expression of 0.939 and 0.972 (Transferrin receptor protein 1 (Tfrc, Mus musculus, UniProt Q62351); flow cytometry; RAW264.7; 48 h, pH 7.4, unit not given; relative to: 0 h).
The inhibition of `O=c1cc(NCCCCCCO)[nH]c(=O)[nH]1` is reported as 13 ± 1% (FFAR4; antagonist, β-arrestin recruitment; CHO cells; 10 µM).
With `Nc1nc2cc(F)c(F)cc2[nH]1` the Hill coefficient was 1.13 ± 0.09 (Voltage-gated hydrogen channel 1 (HVCN1, Homo sapiens, UniProt Q96D96); proton current, inhibitor, inside-out patch clamp; Xenopus oocytes; dimeric channel).
For `Cn1cc(-c2ccc(-c3cncc(Cl)c3N3CCC4(CCNC4=O)CC3)cc2)cn1`, “log2 fold change” read 1.38 (COLO 205; gene expression, microarray, refers to: BHLHE40 mRNA; concentration not given, 6 h; relative to: untreated cells).
`CCCC(CCC)c1nc2c(Nc3ccc(C#CCCCCCCCCN)cc3)nc3ccccc3c2[nH]1` — result for off-target affinity: “inactive” (Muscarinic acetylcholine receptor M2 (CHRM2, Homo sapiens, UniProt P08172); PDSP screening).
`O=C(Nc1nnc(-c2ccc(Cl)s2)o1)c1ccc(Cl)s1` has a koff of 2.35 s⁻¹ (GAP50; binding, surface plasmon resonance; 1:1 binding model).
The remaining binding of `C=CC(=O)N1CCC(COCC(=O)N2CCN(c3nc(-c4cnc(N)nc4C(F)F)nc(N4CCOC[C@@H]4C)n3)CC2)CC1` is reported as 74% (Receptor-type tyrosine-protein kinase FLT3 (FLT3, Homo sapiens, UniProt P36888, D835H); KINOMEscan; 1 µM).
For `[2H]C([2H])(N)c1ccc(C(F)(F)F)cc1`, the pKa was 7.6 ± 0.1 (Amine oxidase [flavin-containing] A (Maoa, Rattus norvegicus, UniProt P21396); kcat pH profile ES complex, substrate; pH 6.5-9.5).
For `NC(=O)c1ccc[n+]([C@@H]2O[C@H](COP(=O)([O-])OP(=O)(O)OC[C@H]3O[C@@H](n4cnc5c(NCCNC(=O)CCCCCNC(=O)CCCCCNC(=O)CCCC[C@@H]6SC[C@@H]7NC(=O)N[C@@H]76)ncnc54)[C@H](O)[C@@H]3O)[C@@H](O)[C@H]2O)c1`, the apparent Km was 36 µM (Protein mono-ADP-ribosyltransferase PARP16 (PARP16, Homo sapiens, UniProt Q8N5Y8); substrate, DELFIA auto-modification).
`CC(C)NCCCC[C@@H]1NC(=O)[C@H](Cc2ccc(O)cc2)NC(=O)[C@H](Cc2ccccc2)NC(=O)CC[C@H](C(=O)N[C@@H](CCCCNC(C)C)C(=O)N[C@@H](CCCCNC(=O)[C@H](CCC(=O)O)NC(=O)[C@H](CCC(=O)O)NC(=O)[C@H](CCC(=O)O)NC(=O)CN2CCN(CC(=O)O)CCN(CC(=O)O)CC2)C(N)=O)NC(=O)CNC(=O)[C@H](Cc2ccc3ccccc3c2)NC(=O)[C@@H](CCCNC(=N)N)NC1=O` [fluorine-18 labelled] gave an internalized fraction of 0.07% (CXCR4; radioligand cell uptake; MM.1S cells).
`c1coc(CNc2nc(N3CCCCC3)nc3ccccc23)c1` gave a koff of 0.95 s⁻¹ (GAP50; binding, surface plasmon resonance; 1:1 binding model).
`NC(=O)NOCCCCCCCCCCCCCCCC[P+](c1ccccc1)(c1ccccc1)c1ccccc1.O=C([O-])C(F)(F)F`: “oxygen consumption rate” 69.3 ± 7.08% (NADH dehydrogenase [ubiquinone] iron-sulfur protein 7, mitochondrial/NADH dehydrogenase [ubiquinone] iron-sulfur protein 2, mitochondrial/MT-ND1 (Homo sapiens, UniProt O75251+O75306+P03886); complex I-dependent respiration, Seahorse XF96; HCT-116; 0.4 µM, 24 h; relative to: control).
The relaxed DNA of `Cc1nc(CSc2nc(SCc3ccc(C(C)C)cc3)nc(=O)[nH]2)cs1` is reported as 12% (DNA topoisomerase 2-alpha (TOP2A, Homo sapiens, UniProt P11388); DNA relaxation; 125 µM, replicate 1).
For `O=C(COc1ccc(C(F)(F)F)cc1C(F)(F)F)Nc1cc(C2CCC2)nn1C1CCC(F)(F)CC1`, the Emax was 25% (Kir3.1/Kir3.2; thallium flux, activator; HEK293; relative to: standard compound).
The remaining activity of `CC(=O)c1ccc(N2CCOCC2)cc1O` is reported as 91.7 ± 10% (TRPM8; antagonist; HEK293; 5 µM; relative to: control).
`O=c1cc(NCCc2ccc(Br)cc2)[nH]c(=O)[nH]1` has an activation of 0 ± 1% (FFAR4; agonist, β-arrestin recruitment; CHO cells; 10 µM).
`Cn1ncc2c(N3CCCCC3)nc(Nc3ccccc3)nc21` has a Hill slope of 1.5 (3-oxoacyl-[acyl-carrier-protein] reductase FabG (fabG, Pseudomonas aeruginosa, UniProt O54438); enzyme activity, inhibitor, NADPH fluorescence; reverse reaction, together with: 3-OH-decanoyl-NAC, NADP).
`CCCCCCCCNc1[nH]c(=O)[nH]c(=O)c1Br` gave an agonist effect of 0 ± 1% (FFAR4; agonist, β-arrestin recruitment; CHO cells; 10 µM; relative to: 30 µM TUG-891).
`Cc1nn(C2CCS(=O)(=O)C2)c(C)c1NC(=O)COc1ccc(Cl)cc1Cl` (stereo not drawn): activity “inactive” (Kir3.1/Kir3.2; activator, thallium flux; HEK293; concentration not given).
For `O=c1cc(NCCc2ccccc2)[nH]c(=O)[nH]1`, the inhibition was 21 ± 9% (FFAR4; antagonist, β-arrestin recruitment; CHO cells; 10 µM).
`Cc1ccc(C(=O)Nc2ccc3ccccc3c2)o1` gave a current potentiation of 1.64 fold (Otop1 (Mus musculus, UniProt Q80VM9); proton current, potentiator, whole-cell patch-clamp; HEK-293T; 10 µM, pH 5.5; relative to: current before compound).
For `NC/C(=C\F)COc1cccc(Cn2c(=S)[nH]c(=O)c3[nH]cnc32)c1`, the H2O2 concentration was -35.3 µM (Myeloperoxidase (MPO, Homo sapiens, UniProt P05164); H2O2 consumption, inhibitor, H2O2 electrode; 10 µM, 0 s).
The agonist effect of `O=C(O)CCCCCCCNc1cc(=O)[nH]c(=O)[nH]1` is reported as 0% (FFAR4; β-arrestin recruitment; CHO; 10 µM; relative to: 30 µM TUG-891).
The inhibition of `CC[C@@H]1[C@H](F)C(=O)N[C@@H]1COc1nccc2cc(C(N)=O)c(OC)cc12` is reported as -31.6% (Serine/threonine-protein kinase TBK1 (TBK1, Homo sapiens, UniProt Q9UHD2); ATP-site probe binding, ActivX profiling; THP-1 cell lysate; 0.2 mM, Lys1 site).
`NCCNc1ncc(C(N)=O)c(Nc2cccc(C(F)(F)F)c2)n1` gave a remaining activity of 109 ± 3.83% (TRPM8; antagonist; HEK293; 5 µM; relative to: control).
`C[C@]1(O)C[C@@H](c2nc(-c3ccc4ccc(-c5ccccc5)nc4c3)c3c(N)nccn32)C1` — result for binding inhibition: “inhibited” (Ferrochelatase, mitochondrial (FECH, Homo sapiens, UniProt P22830); inhibitor, competition gel profiling; concentration not given).
The Hill slope of `COc1c(Nc2cc(C(F)(F)F)cc(C(F)(F)F)c2)c(=O)c1=O` is reported as 1.9 (CD209 antigen (CD209, Homo sapiens, UniProt Q9NNX6); binding, grating-coupled interferometry; Man(α1,2)Man-PEG3 chip; 2 h, no Tris).
`N[C@@H](CCCCB(O)O)C(=O)O` gave a binding stoichiometry of 0.84 ± 0.01 (Arginase (Schistosoma mansoni, UniProt Q6WVP6); isothermal titration calorimetry; concentration not given).
`COc1cc(F)ccc1-c1ncnc(Nc2cccc(C[S@](C)(=N)=O)c2)n1` has a remaining activity of 82% (Serine/threonine-protein kinase WNK2 (WNK2, Homo sapiens, UniProt Q9Y3S1); kinase activity; 10 µM, together with: 10 µM ATP).
`NCCCS(=O)(=O)O` — result for “normalised MST signal”: -0.0863 (Sodium- and chloride-dependent taurine transporter (SLC6A6, Homo sapiens, UniProt P31641, G62A); binding, microscale thermophoresis; 3.91 µM, room temperature, together with: 50 nM labelled protein; higher = more binding).

Some of these lines once more:
The agonist effect of `O=C(O)CCCCCCCNc1cc(=O)[nH]c(=O)[nH]1` is reported as 0% (FFAR4; β-arrestin recruitment; CHO; 10 µM; relative to: 30 µM TUG-891).
`NC(=O)NOCCCCCCCCCCCCCCCC[P+](c1ccccc1)(c1ccccc1)c1ccccc1.O=C([O-])C(F)(F)F`: “oxygen consumption rate” 69.3 ± 7.08% (NADH dehydrogenase [ubiquinone] iron-sulfur protein 7, mitochondrial/NADH dehydrogenase [ubiquinone] iron-sulfur protein 2, mitochondrial/MT-ND1 (Homo sapiens, UniProt O75251+O75306+P03886); complex I-dependent respiration, Seahorse XF96; HCT-116; 0.4 µM, 24 h; relative to: control).
For `NC(=O)c1ccc[n+]([C@@H]2O[C@H](COP(=O)([O-])OP(=O)(O)OC[C@H]3O[C@@H](n4cnc5c(NCCNC(=O)CCCCCNC(=O)CCCCCNC(=O)CCCC[C@@H]6SC[C@@H]7NC(=O)N[C@@H]76)ncnc54)[C@H](O)[C@@H]3O)[C@@H](O)[C@H]2O)c1`, the apparent Km was 36 µM (Protein mono-ADP-ribosyltransferase PARP16 (PARP16, Homo sapiens, UniProt Q8N5Y8); substrate, DELFIA auto-modification).
For `C=CC(=O)N1CCC[C@@H](n2nc(-c3ccc(Oc4ccccc4)cc3)c3c(N)ncnc32)C1`, the remaining activity was 75.3% (Casein kinase I isoform alpha-like (CSNK1A1L, Homo sapiens, UniProt Q8N752); 0.1 µM).
